Experimental data gathered from unrelated publications.
Every numbered part comes from another study and shows a few of its results, in no order. Substitutions count along the parent as printed.
UniProt Q9Y3S1, sequence (whole entry, looked up): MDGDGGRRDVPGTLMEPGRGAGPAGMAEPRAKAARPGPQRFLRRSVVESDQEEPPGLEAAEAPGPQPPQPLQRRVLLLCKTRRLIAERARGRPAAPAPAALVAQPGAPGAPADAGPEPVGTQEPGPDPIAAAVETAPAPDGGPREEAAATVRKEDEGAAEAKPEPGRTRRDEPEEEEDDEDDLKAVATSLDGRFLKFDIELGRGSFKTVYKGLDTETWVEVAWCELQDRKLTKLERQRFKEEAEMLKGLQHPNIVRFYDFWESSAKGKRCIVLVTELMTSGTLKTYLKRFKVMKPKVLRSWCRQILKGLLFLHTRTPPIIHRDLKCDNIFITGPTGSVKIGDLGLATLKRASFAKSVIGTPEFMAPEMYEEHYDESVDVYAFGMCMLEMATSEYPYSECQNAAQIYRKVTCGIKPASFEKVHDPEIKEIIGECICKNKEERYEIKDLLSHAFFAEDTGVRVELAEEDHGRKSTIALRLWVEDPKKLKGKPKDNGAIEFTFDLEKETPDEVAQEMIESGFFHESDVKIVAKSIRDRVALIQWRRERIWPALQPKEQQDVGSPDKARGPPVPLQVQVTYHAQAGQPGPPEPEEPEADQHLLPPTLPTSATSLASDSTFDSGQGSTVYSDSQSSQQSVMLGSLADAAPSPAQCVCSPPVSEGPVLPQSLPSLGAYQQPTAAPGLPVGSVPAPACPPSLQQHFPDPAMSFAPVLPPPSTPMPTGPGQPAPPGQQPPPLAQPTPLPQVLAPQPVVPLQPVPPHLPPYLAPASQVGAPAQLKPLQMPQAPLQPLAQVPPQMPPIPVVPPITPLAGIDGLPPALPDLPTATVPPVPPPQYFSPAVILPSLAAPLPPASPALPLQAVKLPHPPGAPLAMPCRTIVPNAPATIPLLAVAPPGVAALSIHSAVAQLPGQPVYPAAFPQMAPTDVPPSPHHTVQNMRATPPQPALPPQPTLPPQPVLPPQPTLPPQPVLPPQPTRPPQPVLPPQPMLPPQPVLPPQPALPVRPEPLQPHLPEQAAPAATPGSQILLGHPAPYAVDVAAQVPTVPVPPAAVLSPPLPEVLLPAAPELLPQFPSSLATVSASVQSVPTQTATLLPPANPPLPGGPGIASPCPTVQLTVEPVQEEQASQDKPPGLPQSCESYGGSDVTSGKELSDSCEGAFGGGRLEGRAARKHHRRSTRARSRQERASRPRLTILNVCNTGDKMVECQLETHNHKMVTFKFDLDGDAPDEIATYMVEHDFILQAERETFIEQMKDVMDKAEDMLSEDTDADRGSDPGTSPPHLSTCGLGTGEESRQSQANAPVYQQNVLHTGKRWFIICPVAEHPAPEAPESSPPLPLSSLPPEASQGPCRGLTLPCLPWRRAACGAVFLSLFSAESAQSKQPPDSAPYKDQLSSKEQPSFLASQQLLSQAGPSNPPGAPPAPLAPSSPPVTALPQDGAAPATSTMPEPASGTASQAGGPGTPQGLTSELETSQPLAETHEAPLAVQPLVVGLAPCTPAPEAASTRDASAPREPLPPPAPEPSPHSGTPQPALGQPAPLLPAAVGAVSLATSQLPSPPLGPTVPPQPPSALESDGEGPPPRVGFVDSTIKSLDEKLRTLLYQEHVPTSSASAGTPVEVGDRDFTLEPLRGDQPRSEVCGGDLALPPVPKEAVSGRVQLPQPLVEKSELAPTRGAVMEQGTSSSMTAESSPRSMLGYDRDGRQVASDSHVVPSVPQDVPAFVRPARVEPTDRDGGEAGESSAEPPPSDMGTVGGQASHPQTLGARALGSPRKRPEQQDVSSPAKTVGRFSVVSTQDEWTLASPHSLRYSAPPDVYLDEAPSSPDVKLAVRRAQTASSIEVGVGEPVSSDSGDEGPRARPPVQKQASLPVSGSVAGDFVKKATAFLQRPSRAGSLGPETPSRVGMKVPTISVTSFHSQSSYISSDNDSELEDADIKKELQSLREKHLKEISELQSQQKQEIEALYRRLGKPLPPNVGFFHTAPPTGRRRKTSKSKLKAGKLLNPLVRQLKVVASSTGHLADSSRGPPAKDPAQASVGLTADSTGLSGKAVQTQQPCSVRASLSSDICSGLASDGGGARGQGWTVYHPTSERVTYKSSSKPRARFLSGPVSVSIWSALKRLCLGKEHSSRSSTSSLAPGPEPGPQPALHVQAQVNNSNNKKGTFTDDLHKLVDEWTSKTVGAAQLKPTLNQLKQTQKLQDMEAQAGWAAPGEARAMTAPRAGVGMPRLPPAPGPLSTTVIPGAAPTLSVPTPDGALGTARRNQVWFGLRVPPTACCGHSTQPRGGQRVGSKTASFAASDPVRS

Series 1
Target: Prothrombin, mature alpha-thrombin (F2, Homo sapiens, UniProt P00734)
Technique: aptamer microarray, sandwich
Molecule type: DNA with 2'F-ANA
Matrix: in vitro
Tested at: 200 nM
Setting: whole 15-mer aptamer, many near background
Added: Cy3 exosite-II aptamer, 400 nM
Reading: higher = stronger binding
Strand: GGTTGGTGTGGTTGG
For `2'F-ANA at 3 5 13`, “mean fluorescence intensity” read 130 a.u.
`2'F-ANA at 2 3 4 6 7 8 10 11 13 15`: “mean fluorescence intensity” 157 a.u.
`2'F-ANA at 4 6 7 9 10 11 12 15` — result for “mean fluorescence intensity”: 90.3 a.u.
For `2'F-ANA at 7 8 10 15`, “mean fluorescence intensity” read 199 a.u.
Under “mean fluorescence intensity”, `2'F-ANA at 2 5 6 7 8 12 13 15` is recorded as 112 a.u.
`2'F-ANA at 1 4 5 6 9 10` — result for “mean fluorescence intensity”: 49.6 a.u.
`2'F-ANA at 1 3 4 7 9 11 13 15` — result for “mean fluorescence intensity”: 128 a.u.
Under “mean fluorescence intensity”, `2'F-ANA at 1 2 4 7 9 11 12 13 14` is recorded as 50.2 a.u.

Series 2
Target: CCND1, cyclin fold, Cln2 fusion (human)
Technique: yeast growth competition, sequencing
Matrix: yeast
Setting: weak parent motif
Baseline: not given
Reading: higher = stronger binding
Starting sequence: MICAL3 docking peptide (human); LQLRRQLSFSEDS
Under “normalised enrichment score”, `LLLRRQLSFSEDS [Q2L]` is recorded as 0.55.
Under “normalised enrichment score”, `LQLRRQLSFSEES [D12E]` is recorded as 0.519.
`LQLRRHLSFSEDS [Q6H]`: “normalised enrichment score” 0.0836.
For `LQLRRQLTFSEDS [S8T]`, “normalised enrichment score” read 0.213.
Under “normalised enrichment score”, `LQLRRQNSFSEDS [L7N]` is recorded as -0.0301.
Under “normalised enrichment score”, `LQLRMQLSFSEDS [R5M]` is recorded as 0.0562.
`LQLRCQLSFSEDS [R5C]`: “normalised enrichment score” 0.174.
`LQLRRQLSFSEWS [D12W]`: “normalised enrichment score” 0.213.

Mixed results
For `COc1cc2ncnc(Nc3ccc(Oc4ccccc4)cc3)c2cc1OC`, the remaining activity was 88.1% (Serine/threonine-protein kinase WNK2 (WNK2, Homo sapiens, UniProt Q9Y3S1); enzyme activity, inhibitor; 0.5 µM; baseline: control).
`O=C(Nc1cccnn1)N1CC(C/C=C/c2cncc(Oc3ccc(C(F)(F)F)cn3)n2)C1` has a remaining binding of 72% (Mitogen-activated protein kinase 9 (MAPK9, Homo sapiens, UniProt P45984); cell-free assay, competition with immobilised ligand; 1 µM).

A few entries again (series 1):
Under “mean fluorescence intensity”, `2'F-ANA at 2 5 6 7 8 12 13 15` is recorded as 112 a.u.
`2'F-ANA at 1 4 5 6 9 10` — result for “mean fluorescence intensity”: 49.6 a.u.
